Measured values of several laboratories.
A part holds a random share of what one study measured.

Study 1 — method: RNA Bind-n-Seq; molecule type: RNA; medium: in vitro; tested at: 90 pmol; notes: 4-mer, random 30-nt RNA, single round; baseline: input library; direction: higher = stronger binding
Target: Eukaryotic initiation factor 4A-I (EIF4A1, Homo sapiens, UniProt P60842, residues 1-406, full length assumed)
Sequence of UniProt P60842 (whole entry, looked up): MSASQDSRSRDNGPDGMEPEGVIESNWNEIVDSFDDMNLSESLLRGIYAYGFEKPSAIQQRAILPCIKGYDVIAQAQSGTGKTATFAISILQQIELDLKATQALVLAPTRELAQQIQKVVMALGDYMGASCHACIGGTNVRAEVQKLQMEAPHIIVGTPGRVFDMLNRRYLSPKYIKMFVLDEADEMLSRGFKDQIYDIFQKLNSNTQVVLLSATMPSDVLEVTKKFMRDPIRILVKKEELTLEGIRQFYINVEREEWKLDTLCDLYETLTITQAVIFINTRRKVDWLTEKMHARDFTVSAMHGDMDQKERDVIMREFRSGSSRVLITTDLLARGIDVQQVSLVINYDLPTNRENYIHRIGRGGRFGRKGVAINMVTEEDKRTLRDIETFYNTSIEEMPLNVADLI
Added: 3 µM iPr-DMDA-PatA, 2 mM ADP, 2 mM phosphate
Sequence | 4-mer enrichment
GACC | 1.09 fold
AUGU | 1.07 fold
UUCA | 1.11 fold
GCGG | 0.616 fold
UUGC | 0.838 fold
UGAU | 1.18 fold
AAUU | 1.37 fold
UCAA | 1.22 fold
CGGG | 0.592 fold
CAAA | 1.34 fold
UUAC | 1.13 fold
GAUU | 1.21 fold
AGAG | 1.23 fold
GCGA | 1.01 fold
GUGC | 0.718 fold
AUUU | 1.25 fold
GGAU | 0.945 fold

Study 2 — method: RNA Bind-n-Seq; molecule type: RNA; medium: in vitro; tested at: not given; baseline: input RNA pool; direction: higher = stronger binding
Target: RING finger protein unkempt homolog, zinc fingers 1-6, GST-SBP tag (UNK, Homo sapiens, UniProt Q9C0B0, residues 30-357)
Sequence of UniProt Q9C0B0 (30-357, looked up): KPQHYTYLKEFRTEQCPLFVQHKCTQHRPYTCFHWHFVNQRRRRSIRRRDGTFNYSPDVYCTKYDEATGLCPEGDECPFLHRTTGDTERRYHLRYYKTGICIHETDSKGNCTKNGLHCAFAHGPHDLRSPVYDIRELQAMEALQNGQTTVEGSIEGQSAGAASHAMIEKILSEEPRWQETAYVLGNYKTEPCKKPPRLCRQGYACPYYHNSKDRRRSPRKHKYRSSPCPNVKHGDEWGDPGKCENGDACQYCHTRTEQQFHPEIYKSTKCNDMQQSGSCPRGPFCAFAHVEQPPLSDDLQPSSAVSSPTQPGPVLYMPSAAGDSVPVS
Notes: RNA with constant flanks, human and mouse sites, ends assumed
All sequences stand within: GGGAGUUCUACAGUCCGACGAUC … CAACAGAGGAUUGAGCAUCA
Sequence | bound/input enrichment [ratio]
AACAAGCAAAACAAAACUUUCCAGCCAUUUUACUGCAGCAGUCUGUGAACUAAAUUUGUAAAUAUGGCUGCACCAUUUUUGUAGGCCUGCAUUGUAUUAUAUACAAGACGUAGGCUUUAA | 0.226
CACCAGCCCAGUCCGGAUCAUUUCUGGCCCCGCUUCCCGGACGCUCUGCGCCCUUUCUUUCCUUGGGAUCAAUUGGAAAACGAGGAUUCCAGCGUGCACAUUUCCCCCCGGCAGAAGCGA | 0.144
CCUCUUGUGGGCAAGGACAGUUUUAAUGUUGAUCCCAGCAGUGUGUGUCUUUAUUUCCUCACUAGAGUAGGAAAAAGCCCAGUGUAUUCCUCAUGAAUGCUCUCUAAACCUGUGAAGAGC | 0.172
GGAGGUCAGGUUCCUGACACAAACUACAUAUUUAUGGGUGAUUUUGUAGACAGAGGUUACUAUAGUUUGGAGACCUUCACUUAUCUUCUUGCACUAAAGGCUAAGUGGCCUGACCGUAUU | 0.423
CAAACGUGGGUGUUGGUGUGGACGGGGCGCAGAUCUCCGUGGAUGAACUGCGUCUGGACUCUUAGAUUCAUAAAAUAUUCGAGGGUUUGGGAGUCACAGACCCUCCCCUCUCCUCAGUGC | 2.76
UAAUGUUCUUAGAAAAGAAUUCUCAUUCAUCUUCCCAUAGUGAAAUUCUCUAGCACUGUAUUUAGAUUCUGGAUUUUUAUAAUUCAUGCUUAAUGUAUUAGACAUUUUUAGCCCAUAAUU | 12.9
UAUCAUCCUGAUAAGAAUCCAAAUGCAGGAGACAAAAAUUAAAUGGAUUCUGGAUUCCUGUAGCUUCUCCCCACUCUUCUACUUGAAAAUGCAAUUAUUUUUAUUUUUACCUUUUCUUUA | 0.696
AAAAGGAACUGGUGAUUUAAAAAAAGAAAAACACAAAAAGGGACCAUUGCAACCUUUUUAUUUUAUUUUCUUUUUUGGAGGGAGAAAGCUGAUGUCUUCUAUGCAUCCGAUUUCUUAAAC | 0.265

Study 3 — method: RNA Bind-n-Seq; molecule type: RNA; medium: in vitro; tested at: 1 µM; notes: whole 134-nt RNA, ends assumed; added: 150 mM KCl; baseline: input library; direction: higher = stronger binding
Target: Ras GTPase-activating protein-binding protein 1, C-terminal RGG region (G3BP1, Homo sapiens, UniProt Q13283)
Sequence of UniProt Q13283 (whole entry, looked up): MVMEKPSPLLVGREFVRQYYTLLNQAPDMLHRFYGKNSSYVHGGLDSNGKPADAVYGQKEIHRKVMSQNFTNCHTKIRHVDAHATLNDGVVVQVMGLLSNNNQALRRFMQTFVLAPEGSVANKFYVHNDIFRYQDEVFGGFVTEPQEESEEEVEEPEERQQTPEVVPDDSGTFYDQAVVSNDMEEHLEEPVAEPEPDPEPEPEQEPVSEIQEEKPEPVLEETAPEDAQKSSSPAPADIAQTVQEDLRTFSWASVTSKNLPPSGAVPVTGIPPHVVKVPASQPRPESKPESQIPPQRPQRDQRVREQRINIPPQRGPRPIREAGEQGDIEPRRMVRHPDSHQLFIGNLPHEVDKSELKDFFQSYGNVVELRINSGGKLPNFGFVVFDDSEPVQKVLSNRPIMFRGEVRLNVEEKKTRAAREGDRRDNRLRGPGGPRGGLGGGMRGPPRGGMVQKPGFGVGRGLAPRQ
All sequences stand within: GGGAGUUCUACAGUCCGACGAUC … UGGAAUUCUCGGGUGUCAAGG
Sequence | log2 enrichment
GCAGGAAGUAAAAACAAAUGGAAAUGCUUCGGAUAGUGGCAGGGGUGGGAAAUGCUAAGGAAAGGGUGGGAUGGGAGUGGGUAAAGAGUU | 1.37
AAGUCCUGUGCUACACAUCGUAUGUACCGAAUCGGGAAAGGGAAAGGGAAAAAGGGAAAGUAUUAUGUUACGCCGUUCGGAUCUGCACUU | 0.545
CCUCAAGUCCUGUGCUACACAUCGUAUGUACCGAAUCGGAGGAAAAAGGAGGAAAGUAUUAUGUUACGCCGUUCGGAUCUGCACUUCCAG | -0.729
UGGCCCUGGUGGCAUGCGGGGAGGAAGAGGUGGCCUCAUGGAUCGUGGUGGUCCCGGUGGAAUGUUCAGAGGUGGCCGUGGUGGACACAG | 3.61
CUCAAGUCCUGUGCUACACAUCGUAUGUACCGAAUCGGGGCGGCGGGGCGGGGAAAGUAUUAUGUUACGCCGUUCGGAUCUGCACUUCCA | 0.309
CAAGUCCUGUGCUACACAUCGUAUGUACCGAAUCGGGGUGGGGAGGGGUUUGGGGAAAGUAUUAUGUUACGCCGUUCGGAUCUGCACUUC | 2.44
UCAAGUCCUGUGCUACACAUCGUAUGUACCGAAUCGGGGUUGGGUUGGGGUUGGAAAGUAUUAUGUUACGCCGUUCGGAUCUGCACUUCC | 0.0208
UGCCAUAAGCGGCACCGGCACUGCCCGGUUGUCGUGUCCGAGGCCACCAUCGUGGGCGUCCGCAAGACCGGGCAGAUCUGGCCCAACGAU | -2.28
CCUGUGCUACACAUCGUAUGUACCGAAUCGGAAAAAAAGGAAAAAAAGGGGAAAAAAAGGAAAGUAUUAUGUUACGCCGUUCGGAUCUGC | -1.77

Study 4 — method: RNA Bind-n-Seq; molecule type: RNA; medium: in vitro; tested at: 365 nM; baseline: no-protein control; direction: higher = stronger binding
Target: RNA binding protein fox-1 homolog 2, RRM domain, GST-SBP tag (RBFOX2, Homo sapiens, UniProt O43251-10, residues 100-194)
Notes: natural RNA segment, single round, ends assumed
All sequences stand within: GGGAGUUCUACAGUCCGACGAUC … UGGAAUUCUCGGGUGCCAA
Sequence | RBNS enrichment (R)
GUCUCUGACAGACAAAUCUAAGGAGUUGCCGUUAUACUGUUCUGGGGGUUUGCGGUUUUUCUGGGACAACAAGUUUGACCAUGCAAUGGUAGCUUUUCUGGACUGUGUGC | 0.972
AUCCUUAUAAACUCCACUUUGUACUUUAGAUUUUAAAACUGGGGAAAAAUGUGAUAUUCUUUGGACCACUUUUUUAAUUUAUAUAAGCCUUAAUGAACAGUGUCUAUACA | 0.515
CAGGUGAGCCCUGAAAACACAAAAGGACAGUUCUGUGUUGAAACACCCCAUCCCCUCACGUUCUCACCCCAGGCCCAGAAGUAGGUUGCAACUGCCUUUGGAAGAUUUUG | 0.672
CCAGGGUGCAGUGUGAGUGUGAUGGGCCACCGGGGCAAGAGGGAAGGUGACCGCCCAGCUCUCCCACAUCCCACUGGAUCUGGCUUACAGGGGGGUCGGAAGCCUGUCCU | 0.942
UGGUACUUGCCUGUAGUGUUAAACCCUAUUUGUGCCAUUCUCAAGUCCUUUGAUGUGAAUUUUCAGUUUGGUACAGUUAGAAAUGACUCAUUGAUGCGGACAGGUAAGAA | 0.593
AAAUAUAUAAGGAUGGACAUUUUAUCGUCUCAUAGUCAUGCUUUUUGGAAAUUUACAUCAUCCUCAAGUAAAAUAAAUAUCAGUUAAAUAUUGGAAGCUGUGUGUAAGAU | 0.638
GCAGACCAAAAGUCACAACAGUGGCAGGCAGGCUGCAUGCUUUUUGUAUCGCUCACGAUGCACUGUGGUGUGCUCGGGUAUCUUUCCUCACUGGAGAGAGCAAGCACAGG | 0.577
CCCUGUAGCGUCUGAUUCCACUUACCAGACACCCACGCAUCUGCAGGAUGUCUGAUGCAGAGCGGUUCUCCAUCCCUCAGUUCCAGAAAAAAUGGAGUGAUAUUUAAAAA | 0.399

Some of these lines once more (study 1):
Sequence | 4-mer enrichment
GCGG | 0.616 fold
UUGC | 0.838 fold
UGAU | 1.18 fold
AAUU | 1.37 fold
UCAA | 1.22 fold
CGGG | 0.592 fold
